Measurements collected from several papers.
Lines come from different studies, so protocols differ. Several values in a cell are separate wells, animals, samples, runs or records. Numbers after ± are the reported error.
NR4A1: Nuclear receptor subfamily 4 group A member 1 (NR4A1, Homo sapiens, UniProt P22736)
Chain of UniProt P22736 (whole entry, looked up): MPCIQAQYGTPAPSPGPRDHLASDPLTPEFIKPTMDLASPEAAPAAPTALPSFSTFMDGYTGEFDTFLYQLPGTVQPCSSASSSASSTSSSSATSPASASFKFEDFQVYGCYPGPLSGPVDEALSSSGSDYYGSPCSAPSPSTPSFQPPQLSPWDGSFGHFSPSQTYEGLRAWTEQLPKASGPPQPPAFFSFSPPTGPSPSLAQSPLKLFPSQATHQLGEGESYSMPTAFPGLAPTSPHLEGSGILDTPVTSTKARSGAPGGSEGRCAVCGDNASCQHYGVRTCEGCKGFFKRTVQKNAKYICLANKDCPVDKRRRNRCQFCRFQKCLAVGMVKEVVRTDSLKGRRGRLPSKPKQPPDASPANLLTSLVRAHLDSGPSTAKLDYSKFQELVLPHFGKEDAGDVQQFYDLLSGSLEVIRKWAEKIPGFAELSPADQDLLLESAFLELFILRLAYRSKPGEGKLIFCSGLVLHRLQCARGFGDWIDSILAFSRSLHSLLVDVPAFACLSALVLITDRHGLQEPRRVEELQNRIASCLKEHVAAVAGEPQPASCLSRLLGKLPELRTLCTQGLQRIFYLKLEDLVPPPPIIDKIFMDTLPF
GUK1: GUK1 (Homo sapiens, UniProt Q16774)
Chain of UniProt Q16774 (whole entry, looked up): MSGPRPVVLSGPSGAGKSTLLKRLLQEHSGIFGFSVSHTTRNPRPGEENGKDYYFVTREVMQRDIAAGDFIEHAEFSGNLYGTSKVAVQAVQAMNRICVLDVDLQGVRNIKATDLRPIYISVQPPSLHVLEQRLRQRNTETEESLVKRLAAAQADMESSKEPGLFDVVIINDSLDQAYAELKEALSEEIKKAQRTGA
Tumor necrosis factor receptor superfamily member 9/Nectin-4: Tumor necrosis factor receptor superfamily member 9/Nectin-4 (Homo sapiens, UniProt Q07011+Q96NY8)
Chain of UniProt Q96NY8 (whole entry, looked up): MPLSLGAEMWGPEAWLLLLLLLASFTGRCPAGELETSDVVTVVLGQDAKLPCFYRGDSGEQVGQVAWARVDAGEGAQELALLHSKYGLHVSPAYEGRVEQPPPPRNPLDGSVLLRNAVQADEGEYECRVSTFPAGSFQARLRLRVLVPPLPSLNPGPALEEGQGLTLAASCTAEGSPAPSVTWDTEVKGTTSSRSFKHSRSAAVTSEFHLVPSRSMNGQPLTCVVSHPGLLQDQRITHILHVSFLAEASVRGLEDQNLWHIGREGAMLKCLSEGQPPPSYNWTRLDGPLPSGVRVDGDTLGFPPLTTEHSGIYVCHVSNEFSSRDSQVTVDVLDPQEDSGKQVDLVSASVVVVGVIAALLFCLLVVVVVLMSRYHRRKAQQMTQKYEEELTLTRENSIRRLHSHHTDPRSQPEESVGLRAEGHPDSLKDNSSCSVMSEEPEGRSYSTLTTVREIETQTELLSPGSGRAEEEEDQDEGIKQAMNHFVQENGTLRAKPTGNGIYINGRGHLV
Chain of UniProt Q07011 (whole entry, looked up): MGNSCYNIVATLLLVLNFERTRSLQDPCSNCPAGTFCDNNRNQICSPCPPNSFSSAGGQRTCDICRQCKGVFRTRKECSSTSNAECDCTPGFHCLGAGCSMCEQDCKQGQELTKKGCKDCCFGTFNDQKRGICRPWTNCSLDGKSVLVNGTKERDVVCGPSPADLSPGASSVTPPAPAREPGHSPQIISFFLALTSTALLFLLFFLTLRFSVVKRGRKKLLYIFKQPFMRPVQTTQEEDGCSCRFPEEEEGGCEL
T1: ssDNA, aptamer; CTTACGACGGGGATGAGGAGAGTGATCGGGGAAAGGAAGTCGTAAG
T2: RNA A16C/A37U, hybrid riboswitch; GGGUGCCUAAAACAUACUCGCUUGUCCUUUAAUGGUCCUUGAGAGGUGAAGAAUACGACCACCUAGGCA
T3: ssDNA, single-stranded; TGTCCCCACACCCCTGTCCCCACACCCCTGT
Chain of UniProt P18669 (whole entry, looked up): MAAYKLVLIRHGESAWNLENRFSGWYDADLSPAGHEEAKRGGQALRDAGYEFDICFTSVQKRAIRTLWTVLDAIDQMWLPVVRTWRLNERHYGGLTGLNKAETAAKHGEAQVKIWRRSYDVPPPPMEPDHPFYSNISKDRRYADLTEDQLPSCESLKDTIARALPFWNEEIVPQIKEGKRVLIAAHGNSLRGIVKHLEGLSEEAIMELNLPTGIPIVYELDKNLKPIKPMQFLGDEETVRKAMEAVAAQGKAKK
Chain of UniProt Q8NER1 (whole entry, looked up): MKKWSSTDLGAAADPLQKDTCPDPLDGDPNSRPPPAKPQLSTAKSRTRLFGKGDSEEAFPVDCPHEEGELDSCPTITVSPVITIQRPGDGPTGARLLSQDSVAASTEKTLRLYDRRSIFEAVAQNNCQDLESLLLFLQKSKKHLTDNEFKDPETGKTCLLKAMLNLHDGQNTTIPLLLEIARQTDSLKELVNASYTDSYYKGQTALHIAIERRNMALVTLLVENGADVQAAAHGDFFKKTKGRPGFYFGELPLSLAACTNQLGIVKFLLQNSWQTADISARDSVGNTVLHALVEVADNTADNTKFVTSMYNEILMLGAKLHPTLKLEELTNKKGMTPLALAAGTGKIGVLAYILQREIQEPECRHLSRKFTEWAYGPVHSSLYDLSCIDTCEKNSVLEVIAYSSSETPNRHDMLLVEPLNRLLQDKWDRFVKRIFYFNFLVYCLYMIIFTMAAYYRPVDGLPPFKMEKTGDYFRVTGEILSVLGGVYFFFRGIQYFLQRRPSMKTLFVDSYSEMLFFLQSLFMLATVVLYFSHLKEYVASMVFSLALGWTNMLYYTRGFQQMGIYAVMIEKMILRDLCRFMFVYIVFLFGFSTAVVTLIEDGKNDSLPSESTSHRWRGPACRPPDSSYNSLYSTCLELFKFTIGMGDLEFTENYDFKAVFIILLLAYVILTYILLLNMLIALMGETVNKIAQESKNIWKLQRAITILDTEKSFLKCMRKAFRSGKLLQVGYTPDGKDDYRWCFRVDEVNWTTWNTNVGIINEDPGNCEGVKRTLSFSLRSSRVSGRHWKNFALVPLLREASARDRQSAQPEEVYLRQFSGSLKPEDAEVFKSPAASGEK
Chain of UniProt Q64663 (whole entry, unmodified, looked up): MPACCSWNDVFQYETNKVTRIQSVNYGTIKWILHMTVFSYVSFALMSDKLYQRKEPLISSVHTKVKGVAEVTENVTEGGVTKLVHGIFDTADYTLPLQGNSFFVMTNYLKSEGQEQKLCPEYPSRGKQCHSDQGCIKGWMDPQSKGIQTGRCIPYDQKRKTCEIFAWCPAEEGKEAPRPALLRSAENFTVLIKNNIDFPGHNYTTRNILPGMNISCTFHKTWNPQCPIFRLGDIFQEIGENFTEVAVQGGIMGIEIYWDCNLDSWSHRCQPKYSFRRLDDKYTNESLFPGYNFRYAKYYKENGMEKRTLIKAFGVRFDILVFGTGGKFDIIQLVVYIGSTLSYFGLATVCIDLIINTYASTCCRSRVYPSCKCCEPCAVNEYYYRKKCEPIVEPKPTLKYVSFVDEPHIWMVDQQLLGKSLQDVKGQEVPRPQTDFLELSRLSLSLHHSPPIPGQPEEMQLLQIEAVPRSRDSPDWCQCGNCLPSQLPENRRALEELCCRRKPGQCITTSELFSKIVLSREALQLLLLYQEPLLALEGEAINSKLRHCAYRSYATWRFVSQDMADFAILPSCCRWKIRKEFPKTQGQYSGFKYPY
Chain of UniProt Q9NYV8 (whole entry, unmodified, looked up): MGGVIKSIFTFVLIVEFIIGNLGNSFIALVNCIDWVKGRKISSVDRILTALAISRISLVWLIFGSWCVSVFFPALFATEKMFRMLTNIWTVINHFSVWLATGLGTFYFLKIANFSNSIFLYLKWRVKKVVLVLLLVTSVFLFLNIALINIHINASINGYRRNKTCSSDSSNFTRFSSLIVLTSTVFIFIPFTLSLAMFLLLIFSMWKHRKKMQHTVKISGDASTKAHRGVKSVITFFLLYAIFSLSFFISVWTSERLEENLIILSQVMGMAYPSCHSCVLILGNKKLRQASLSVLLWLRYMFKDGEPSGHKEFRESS
Chain of UniProt P40073 (whole entry, unmodified, looked up): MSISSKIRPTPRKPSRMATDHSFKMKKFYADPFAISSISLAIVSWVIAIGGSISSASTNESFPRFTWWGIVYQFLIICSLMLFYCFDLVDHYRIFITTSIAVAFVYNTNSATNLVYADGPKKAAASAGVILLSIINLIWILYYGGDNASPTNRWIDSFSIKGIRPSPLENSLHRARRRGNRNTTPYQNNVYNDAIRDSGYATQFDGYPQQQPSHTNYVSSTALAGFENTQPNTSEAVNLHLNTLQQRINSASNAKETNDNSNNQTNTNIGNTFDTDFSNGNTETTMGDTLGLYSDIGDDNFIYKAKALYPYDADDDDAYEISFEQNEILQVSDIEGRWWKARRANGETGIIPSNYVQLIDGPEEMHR
Chain of UniProt Q96SW2 (whole entry, looked up): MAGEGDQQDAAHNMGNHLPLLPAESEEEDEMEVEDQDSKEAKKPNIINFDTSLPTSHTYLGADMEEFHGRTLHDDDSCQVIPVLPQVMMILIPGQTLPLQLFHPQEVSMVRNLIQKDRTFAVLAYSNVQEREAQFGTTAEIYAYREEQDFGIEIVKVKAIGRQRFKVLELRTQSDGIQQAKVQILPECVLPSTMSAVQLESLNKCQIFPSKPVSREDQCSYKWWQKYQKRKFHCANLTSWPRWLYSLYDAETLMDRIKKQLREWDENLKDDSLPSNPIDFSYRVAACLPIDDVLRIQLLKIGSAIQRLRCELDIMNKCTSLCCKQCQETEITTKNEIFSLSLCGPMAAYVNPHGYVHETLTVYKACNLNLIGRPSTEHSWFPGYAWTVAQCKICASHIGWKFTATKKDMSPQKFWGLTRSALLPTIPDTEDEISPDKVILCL
Chain of UniProt P49761 (whole entry, looked up): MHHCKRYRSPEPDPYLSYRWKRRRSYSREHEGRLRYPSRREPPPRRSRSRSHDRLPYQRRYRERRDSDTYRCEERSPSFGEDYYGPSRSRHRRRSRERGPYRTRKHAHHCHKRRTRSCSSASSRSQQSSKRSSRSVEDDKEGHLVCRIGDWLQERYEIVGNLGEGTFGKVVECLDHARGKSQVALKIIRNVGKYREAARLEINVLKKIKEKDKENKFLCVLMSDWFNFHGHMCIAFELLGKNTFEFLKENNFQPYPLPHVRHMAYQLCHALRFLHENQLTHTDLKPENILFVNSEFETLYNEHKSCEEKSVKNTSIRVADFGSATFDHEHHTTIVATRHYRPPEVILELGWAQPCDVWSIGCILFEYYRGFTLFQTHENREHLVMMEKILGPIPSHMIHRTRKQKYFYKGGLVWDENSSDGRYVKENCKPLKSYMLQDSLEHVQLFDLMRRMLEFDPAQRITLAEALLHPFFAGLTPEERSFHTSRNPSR
Chain of UniProt Q9KCC6 (whole entry, unmodified, looked up): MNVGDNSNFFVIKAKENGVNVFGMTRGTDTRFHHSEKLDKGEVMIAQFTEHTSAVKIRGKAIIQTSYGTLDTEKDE

Compound	target	assay	test system	setting	scale	endpoint	result
Nc1nnc(-c2cccc(Cl)c2Cl)c(N)n1	SCN5A (Homo sapiens, UniProt Q14524)	sodium current block kinetics		25 µM		slow recovery time constant	15.6 s
CCCCCCCCCCCCCCCC(=O)Oc1ccc([N+](=O)[O-])cc1	Aspergillus oryzae GP11 lipase	lipase activity, p-nitrophenol release	Tris-HCl buffer, Triton X-100, gum acacia	10 min, pH 35, 8.0 °C, with: p-nitrophenyl palmitate		Km	588 µM
C#CCCOC(=O)[C@]1(C)C=C(C(=O)OC(C)(C)C)C(=O)CC1	MAPK8 (Homo sapiens, UniProt P45983)	D-peptide binding, inhibitor, FP peptide displacement		0.7812 µM	lower is stronger displacement	fraction bound	0.779
O=C1CCC(N2Cc3cc(NC(=O)c4cn5ccccc5n4)ccc3C2=O)C(=O)N1 (stereo not drawn)	Cereblon/Casein kinase I alpha (CSNK1A1/CRBN, Homo sapiens, UniProt P48729+Q96SW2)	degrader, Western blot	MOLT-4	5 h		concentration for maximal degradation	100 nM
Nc1nc2c(ncn2[C@H]2C[C@H](O)[C@@H](COP(=O)(O)OP(=O)(O)OP(=O)(O)O)O2)c(=O)[nH]1	DNA-directed RNA polymerase subunit beta' / DNA-directed RNA polymerase subunit beta (rpoC/rpoB, Escherichia coli, UniProt P0A8T7+P0A8V2)	RNA extension, denaturing gel	Escherichia coli, elongation complex, 6-MI template	5 µM, 10 min, 25 °C		incorporation efficiency	85%
COCCOCc1ccc(-c2cc3onc(-c4ccccc4)c3c(=O)n2C)cc1	NR4A1	reporter gene, NBRE reporter full-length		3 µM	relative to: vehicle	activation	1.41 fold
CC(=O)N[C@H](C(=O)N[C@@H](CC(N)=O)C(=O)N[C@@H](CCCCN)C(=O)N1CCC[C@H]1C(=O)N[C@@H](CC(C)C)C(=O)N1CCC[C@H]1C(=O)N1CCC[C@H]1C(=O)N[C@@H](CC(C)C)C(=O)N1CCC[C@H]1C(=O)N[C@H](C(=O)N[C@@H](C)C(N)=O)C(C)C)C(C)C	High osmolarity signaling protein SHO1, SH3 domain (SHO1, Saccharomyces cerevisiae, UniProt P40073)	binding, isothermal titration calorimetry	50 mM sodium phosphate, 100 mM NaCl	pH 7.0, 25 °C		-TΔS	-0.598 ± 0.0239 kcal/mol
O=S(=O)(O)O	GUK1	enzyme activity, NADH-coupled		10 mM, with: ATP 4000 µM		reaction velocity	0.108 µM/s and 0.113 µM/s and 0.161 µM/s
Oc1ccc(/C=C/c2cc(O)cc(O)c2)cc1	O-methyltransferase (Sorghum bicolor, UniProt A0A1B6PFV1)	ITC		concentration not given, with: SAH+		binding stoichiometry	0.73 ± 0.004
CC1(C)CC2(C)OC(=O)NC2(C)c2ccccc21 (stereo not drawn)	ATP-dependent RNA helicase DDX1 (Homo sapiens, UniProt Q92499)	binding, affinity selection mass spectrometry			relative to: other proteins in batch	fold enrichment	1.03
NCCS(=O)(=O)O	SLC6A6 (Homo sapiens, UniProt P31641, S402A)	binding, microscale thermophoresis		3.91 µM, room temperature, with: 50 nM labelled protein	higher = more binding	normalised MST signal	0.00923
N[C@@H](Cc1c[nH]c2ccccc12)C(=O)O	Transcription attenuation protein MtrB (mtrB, Halalkalibacterium halodurans, UniProt Q9KCC6)	isothermal titration calorimetry		25 °C, site 2 two-site model		ΔG	-8.3 ± 0.1 kcal/mol
CCCC[C@@H]1NC(=O)[C@H](Cc2ccc(O)cc2)NC(=O)[C@@H]2CCCN2C(=O)[C@H](CC(=O)O)NC(=O)[C@H](C)NC(=O)[C@H](Cc2ccccc2)NC(=O)[C@@H]2CSCCC(=O)N3CN(CN(C3)C(=O)CCSC[C@H](NC(C)=O)C(=O)N[C@@H](CC(C)(C)C)C(=O)N[C@@H](CCC(=O)O)C(=O)N[C@@H](CCC(=O)O)C(=O)N[C@H](CCCCNC(=O)CCc3cn(CCOCCOCCOCCOCCOCCC(=O)N[C@H]4CSCCC(=O)N5CN6CN(C5)C(=O)CCSC[C@H](NC(=O)[C@@H](CC(=O)O)NC(=O)[C@H](Cc5cccc7ccccc57)NC(=O)[C@@H]5CCCN5C4=O)C(=O)N[C@@H](CCSC)C(=O)N[C@@H](CCCCNC(=N)N)C(=O)N[C@@H](CC(=O)O)C(=O)N[C@@H](Cc4c[nH]c5ccccc45)C(=O)N[C@@H](CO)C(=O)N[C@@H]([C@@H](C)O)C(=O)N4CCC[C@H]4C(=O)N4C[C@H](O)C[C@H]4C(=O)N[C@@H](Cc4c[nH]c5ccccc45)C(=O)N[C@H](C(N)=O)CSCCC6=O)nn3)C(=O)N3CCC[C@H]3C(=O)N[C@@H](Cc3ccc(O)cc3)C(=O)N2)C(=O)CCSC[C@@H](C(N)=O)NC1=O	Tumor necrosis factor receptor superfamily member 9/Nectin-4	reporter gene, agonist	HT-1376 coculture with reporter cells		relative to: background	Emax	44 fold
COc1cc(CNC(=O)CCCC/C=C/C(C)C)ccc1O	TRPV1 (Homo sapiens, UniProt Q8NER1)	channel activation, FLIPR calcium	HEK293T	0.0823 µM	higher = more activation	calcium response	7.59 a.u. and 8.7 a.u. and 8.21 a.u. and 8.62 a.u.
Nc1ncnc2c1ncn2[C@@H]1O[C@H](COP(=O)(O)O)[C@@H](O)[C@H]1O	T1, ssDNA, aptamer	ITC				Kd	126 µM
Nc1ncnc2c1ncn2[C@@H]1O[C@H](COP(=O)(O)OP(=O)(O)OP(=O)(O)O)[C@@H](O)[C@H]1O	P2X purinoceptor 7 (P2rx7, Rattus norvegicus, UniProt Q64663, R125A)	ion current, agonist, two-electrode voltage clamp	Xenopus laevis oocytes	2.058 µM	relative to: highest concentration response	normalized current	0.0219 and 0.019 and 0.13
Cc1cccc(/C=C/C(=O)Nc2cccc(-c3ccnc(N4CCC(CO)CC4)c3)c2)c1	NR4A1	SPR		10.0 µM		binding response	83.8 RU
O=C(COP(=O)(O)O)[C@@H](O)[C@H](O)[C@H](O)COP(=O)(O)O	Phosphoglycerate mutase 1 (Homo sapiens, UniProt P18669)			0.1562 mM, unit not given	relative to: activity at 10 mM set to 100	enzyme activity	46.2 and 51.9 and 43.8

Compound	target	assay	test system	setting	scale	endpoint	result
NC[C@@H]1O[C@H](O[C@H]2[C@@H](O)[C@H](O[C@@H]3[C@@H](O)[C@H](N)C[C@H](N)[C@H]3O[C@H]3O[C@H](CN)[C@@H](O)[C@H](O)[C@H]3N)O[C@@H]2CO)[C@H](N)[C@@H](O)[C@@H]1O	T2, RNA A16C/A37U, hybrid riboswitch	in-line probing		72 h, Mg2+ 10 mM, K+ 100 mM		binding	binds
NCCOc1cc(C(=O)Nc2cc(OCCN)c3ccccc3n2)nc(C(=O)Nc2cc(OCCN)c3ccccc3n2)c1	T3, ssDNA, single-stranded	laser tweezers		KCl 100 mM		binding	no binding
COc1ccc(Cc2nnc(NS(=O)(=O)c3ccc(Cl)c(Cl)c3)s2)cc1	Glutathione hydrolase 1 proenzyme, without transmembrane domain (Homo sapiens, UniProt P19440)	GSH hydrolysis		37 °C, no inhibition up to 250 µM, with: GSH 5-20 µM		Kii	> 250 µM
CC(=O)Nc1ccc(Oc2ccc3c(c2)C(=O)N(c2cc(C)ccc2C)C3=O)cc1	Sodium channel protein type 8 subunit alpha, C-terminal domain (SCN8A, Homo sapiens, UniProt Q9UQD0)	binding, protein thermal shift		25 µM		delta Tm	0.6 °C
CC(=O)N[C@H](C(=O)N1C[C@H](O)C[C@H]1C(=O)NCc1ccc(-c2scnc2C)cc1)C(C)(C)SCCCCCCNC(=O)C[C@@H]1N=C(c2ccc(Cl)cc2)c2c(sc(C)c2C)-n2c(C)nnc21	Bromodomain-containing protein 2, BD2 (BRD2, Homo sapiens, UniProt P25440)	binding, ITC		25 °C, compound in cell, protein in syringe		−TΔS	-1.43 ± 0.07 kcal/mol
Nc1ncnc2c1ncn2[C@@H]1O[C@H](COP(=O)(O)CP(=O)(O)OP(=O)(O)O)[C@@H](O)[C@H]1O	P2X purinoceptor 1 (P2RX1, Homo sapiens, UniProt P51575, R139A)	calcium influx		10 µM	relative to: ionomycin response	calcium influx	100%
Nc1ncnc2c1ncn2[C@@H]1O[C@H](CO[P@](=O)(O)O[P@](=O)(O)O[P@@](=O)(O)S)[C@@H](O)[C@H]1O	GUK1	binding, isothermal titration calorimetry		molar ratio 1.11, fitted curve		ΔH	-0.948 kcal/mol
O=c1nc(SCc2ccc(C(F)(F)F)cc2)nc(SCc2csc3ccc(Cl)cc23)[nH]1	TOP2A (Homo sapiens, UniProt P11388)	decatenation		0.12 µM		mean decatenated DNA	0%
CCCC[C@@H]1NC(=O)[C@H](Cc2ccc(O)cc2)NC(=O)[C@@H]2CCCN2C(=O)[C@H](CC(=O)O)NC(=O)[C@H](C)NC(=O)[C@H](Cc2ccccc2)NC(=O)[C@@H]2CSCCC(=O)N3CN(CN(C3)C(=O)CCSC[C@@H](C(=O)N[C@@H](CNC(=O)CCOCCOCCOCCOCCOCCOCCOCCOCCOCCOCCOCCOCCn3cc(CCC(=O)NCCC(=O)N(C)CC(=O)N(C)CC(=O)N(C)CC(=O)N(C)CC(=O)N(C)CC(=O)N(C)CC(=O)N(C)CC(=O)N(C)CC(=O)N(C)CC(=O)N(C)CC(=O)N[C@H]4CSCCC(=O)N5CN6CN(C5)C(=O)CCSC[C@H](NC(=O)[C@@H](CC(=O)O)NC(=O)[C@H](Cc5cccc7ccccc57)NC(=O)[C@@H]5CCCN5C4=O)C(=O)N[C@@H](CCSC)C(=O)N[C@@H](CCCCNC(=N)N)C(=O)N[C@@H](CC(=O)O)C(=O)N[C@@H](Cc4c[nH]c5ccccc45)C(=O)N[C@@H](CO)C(=O)N[C@@H]([C@@H](C)O)C(=O)N4CCC[C@H]4C(=O)N4C[C@H](O)C[C@H]4C(=O)N[C@@H](Cc4c[nH]c5ccccc45)C(=O)N[C@H](C(N)=O)CSCCC6=O)nn3)C(N)=O)NC1=O)C(=O)CCSC[C@H](NC(C)=O)C(=O)N[C@@H](CC(C)(C)C)C(=O)N1CCC[C@H]1C(=O)N[C@@H](CCC(=O)O)C(=O)N[C@H](C)C(=O)N1CCC[C@H]1C(=O)N[C@@H](Cc1ccc(O)cc1)C(=O)N2	Tumor necrosis factor receptor superfamily member 9/Nectin-4	reporter gene, agonist	HT-1376 coculture with reporter cells		relative to: background	Emax	36 fold
Cc1cc(Nc2cc(N3CCN(C)CC3)nc(Sc3ccc(NC(=O)C4CC4)cc3)n2)[nH]n1	MST1R (Homo sapiens, UniProt Q04912)	kinase activity, KinaseProfiler		0.03 µM, species human	relative to: control	remaining activity	77%
COc1ccc2c(c1)CN(CCCN1CCN(c3ccccc3OC)CC1)C2=O	HTR2B (Homo sapiens, UniProt P41595)	radioligand binding		concentration not given, with: [3H]LSD		inhibition	96.6%
O=C(NCc1ccc(S(=O)(=O)c2cc(F)cc(F)c2)cc1)c1ccc2nccn2c1	NAMPT (Homo sapiens, UniProt P43490)	inhibitor, competition gel profiling		concentration not given		binding inhibition	inhibited
O=C(CCCc1ccccc1)C(=O)NCCc1ccc(Oc2ccc(C(F)(F)F)cn2)cc1	Prolyl endopeptidase (Mus musculus, UniProt Q9QUR6)	inhibitor, refers to: PPCE	mouse, BAT cytosol proteome	10 µM	relative to: DMSO, lower = stronger inhibition	probe-enriched protein abundance	115000 a.u.
O=C(O)c1ccccc1Nc1cccc(C(F)(F)F)c1	TAS2R14 (Homo sapiens, UniProt Q9NYV8)	G-protein dissociation, TRUPATH gustducin BRET		10 µM, wild-type receptor, unit not given	relative to: vehicle	ΔBRET	-0.00927 and -0.0284 and -0.0101 and -0.0325 and -0.0563 and -0.029 and -0.0438
CC(=O)N[C@H]1[C@@H](OC(C)C(N)C(=O)O)O[C@H](CO[C@]2(C(=O)O)C[C@H](O)[C@@H](NC(C)=O)[C@H]([C@H](O)[C@H](O)CO)O2)[C@H](O)[C@@H]1O (stereo partly drawn)	CLEC10A, carbohydrate recognition domain (Homo sapiens, UniProt Q8IUN9)	binding to carbohydrate recognition domain, isothermal titration calorimetry		293 K		ΔG	-6.2 ± 0.1 kcal/mol
NC(=O)C[C@H](N)C(=O)O	Methyl-accepting chemotaxis protein, ligand-binding domain (Pectobacterium atrosepticum, UniProt Q6D6I9)	thermal shift		ligand-binding domain	relative to: ligand-free protein	ΔTm	8.6 °C
CC[C@@H]1[C@H](F)C(=O)N[C@@H]1COc1nccc2cc(C(N)=O)c(OC)cc12	CLK3 (Homo sapiens, UniProt P49761)	ATP probe binding, KiNativ profiling, refers to: ATP loop probe site	THP-1 cell lysate	0.04 mM		inhibition	15.5%
c1coc(-c2n[nH]cc2-c2ccnc3ccccc23)c1	Mitogen-activated protein kinase HOG1 (HOG1, Candida albicans, UniProt Q92207)	kinase binding, MIB/MS competition	Candida albicans lysate	1 µM	relative to: DMSO, negative = stronger binding	log2 fold change	-0.25

Some of these lines once more:
Compound	target	assay	test system	setting	scale	endpoint	result
CC(=O)N[C@H]1[C@@H](OC(C)C(N)C(=O)O)O[C@H](CO[C@]2(C(=O)O)C[C@H](O)[C@@H](NC(C)=O)[C@H]([C@H](O)[C@H](O)CO)O2)[C@H](O)[C@@H]1O (stereo partly drawn)	CLEC10A, carbohydrate recognition domain (Homo sapiens, UniProt Q8IUN9)	binding to carbohydrate recognition domain, isothermal titration calorimetry		293 K		ΔG	-6.2 ± 0.1 kcal/mol
NC(=O)C[C@H](N)C(=O)O	Methyl-accepting chemotaxis protein, ligand-binding domain (Pectobacterium atrosepticum, UniProt Q6D6I9)	thermal shift		ligand-binding domain	relative to: ligand-free protein	ΔTm	8.6 °C
CC[C@@H]1[C@H](F)C(=O)N[C@@H]1COc1nccc2cc(C(N)=O)c(OC)cc12	CLK3 (Homo sapiens, UniProt P49761)	ATP probe binding, KiNativ profiling, refers to: ATP loop probe site	THP-1 cell lysate	0.04 mM		inhibition	15.5%
c1coc(-c2n[nH]cc2-c2ccnc3ccccc23)c1	Mitogen-activated protein kinase HOG1 (HOG1, Candida albicans, UniProt Q92207)	kinase binding, MIB/MS competition	Candida albicans lysate	1 µM	relative to: DMSO, negative = stronger binding	log2 fold change	-0.25
